Experimental data collected from several papers.
Protocols differ between the studies behind these lines. ± gives the spread as reported.

| SMILES | cell line | test | conditions | CC50 [µM] |
| --- | --- | --- | --- | --- |
| COc1ccc(N(Cc2cc(Cl)cs2)C(=O)Cc2cncc3ccccc23)cc1 | Calu-3 |  | 48 h | 87.5 |
| CC[C@H](C)[C@H](NC(=O)[C@H](C)NC(=O)[C@H](CCCCN)NC(=O)[C@H](CC(N)=O)NC(=O)[C@@H](NC(=O)[C@H](CCCCN)NC(=O)[C@H](CCCCN)NC(=O)[C@H](CC(C)C)NC(=O)[C@@H](NC(=O)[C@H](CCCCN)NC(=O)CNC(=O)[C@@H](NC(=O)CNC(=O)[C@H](CC(N)=O)NC(=O)[C@@H](NC(=O)CNC(=O)[C@H](Cc1ccc(O)cc1)NC(=O)[C@H](CCCNC(=N)N)NC(=O)[C@H](CCSC)NC(=O)[C@@H](NC(=O)[C@H](CCSC)NC(=O)[C@H](C)NC(=O)[C@H](CC(C)C)NC(=O)[C@H](CCC(N)=O)NC(=O)[C@H](CCCCN)NC(=O)[C@H](CCCCN)NC(=O)[C@@H](NC(=O)[C@@H](N)CCCNC(=N)N)[C@@H](C)O)C(C)C)C(C)C)C(C)C)[C@@H](C)CC)[C@@H](C)CC)C(=O)N[C@H](C(=O)N[C@@H](CO)C(=O)N[C@@H](CCCCN)C(=O)N[C@@H](CCCCN)C(=O)N[C@@H](CC(N)=O)C(=O)N[C@@H](CCCCN)C(=O)O)C(C)C | THP-1, PMA-differentiated | cell viability, MTT |  | 14.8 |
| Cc1nc2ccccc2n1Cc1nnc2sc(-c3cc(CC(C)C)[nH]n3)nn12 | HEp-2 | cytotoxicity |  | 43.2 |
| CC[C@H](C)[C@H](NC(=O)[C@H](CC(C)C)NC(=O)[C@@H](NC(=O)[C@H](CCCCN)NC(=O)[C@H](CCCNC(=N)N)NC(=O)[C@H](CCCCN)NC(=O)[C@H](CC(C)C)NC(=O)[C@H](Cc1ccc(O)cc1)NC(=O)[C@@H](NC(=O)[C@@H](NC(=O)[C@H](Cc1ccccc1)NC(=O)CN)C(C)C)C(C)C)[C@@H](C)O)C(=O)N[C@@H](CCCNC(=N)N)C(=O)N[C@@H](CC(C)C)C(=O)N[C@@H](CC(C)C)C(=O)N[C@@H](Cc1ccccc1)C(=O)N[C@H](C(=O)N[C@@H](CC(N)=O)C(=O)N[C@@H](CCCCN)C(=O)N[C@@H](CCCCN)C(=O)N[C@H](C(=O)N[C@H](C(=O)N[C@H](C(=O)N[C@@H](CCC(=O)O)C(=O)N[C@@H](CCCCN)C(=O)N[C@@H](CC(C)C)C(=O)N[C@@H](CCCNC(=N)N)C(=O)N[C@@H](CS)C(=O)N[C@H](C(=O)N[C@@H](CCCNC(=N)N)C(=O)N1CCC[C@H]1C(=O)N[C@@H](CO)C(=O)N[C@@H](CCCNC(=N)N)C(=O)N1CCC[C@H]1C(=O)N1CCC[C@H]1C(=O)N[C@@H](CCCNC(=N)N)C(=O)NCC(=O)N[C@@H](Cc1ccccc1)C(=O)O)C(C)C)[C@@H](C)CC)[C@@H](C)O)[C@@H](C)O)[C@@H](C)O | THP-1, PMA-differentiated | cell viability, MTT |  | 72.8 |
| Nc1ncnc2c1ccn2[C@H]1[C@H](O)[C@H](O)[C@]2(CO)C[C@H]12 | monkey cell line | visual |  | > 100 |
| O=C(CC1NCCCC1O)Cn1cnc2cc(Br)c(Cl)cc2c1=O (stereo not shown) | LMH chicken hepatoma cells |  |  | 0.0399 |
| c1ccc2c(-c3nn4c(Cn5cnc6ccccc65)nnc4s3)cccc2c1 | HEp-2 | cytotoxicity |  | > 100 |
| CC[C@H](C)[C@H](NC(=O)[C@H](CCCNC(=N)N)NC(=O)[C@@H](NC(=O)[C@H](CC(C)C)NC(=O)[C@H](Cc1c[nH]c2ccccc12)NC(=O)[C@H](Cc1ccc(O)cc1)NC(=O)[C@@H](NC(=O)[C@H](CO)NC(=O)[C@@H](NC(=O)[C@H](CCCNC(=N)N)NC(=O)[C@H](CCC(N)=O)NC(=O)[C@H](CCCNC(=N)N)NC(=O)[C@@H]1CCCN1C(=O)[C@H](CC(C)C)NC(=O)[C@H](CO)NC(=O)[C@@H](NC(=O)[C@H](CC(C)C)NC(=O)[C@@H]1CCCN1C(=O)[C@H](CCC(N)=O)NC(=O)[C@H](CCCCN)NC(=O)[C@H](Cc1c[nH]cn1)NC(=O)[C@H](CS)NC(=O)[C@H](CCCNC(=N)N)NC(=O)[C@H](CCCCN)NC(=O)[C@H](CO)NC(=O)[C@H](CC(C)C)NC(=O)[C@H](CO)NC(=O)[C@H](Cc1ccccc1)NC(=O)[C@H](CC(C)C)NC(=O)[C@H](CCCCN)NC(=O)[C@H](Cc1c[nH]cn1)NC(=O)[C@@H](NC(=O)[C@@H](NC(=O)[C@H](CCCCN)NC(=O)[C@H](CCC(N)=O)NC(=O)[C@H](C)NC(=O)[C@H](CCCCN)NC(=O)[C@H](CC(C)C)NC(=O)[C@H](Cc1ccccc1)NC(=O)[C@H](CC(C)C)NC(=O)[C@H](CCC(N)=O)NC(=O)[C@H](CCCCN)NC(=O)[C@@H](N)CCSC)[C@@H](C)CC)C(C)C)[C@@H](C)CC)[C@@H](C)O)[C@@H](C)O)[C@@H](C)O)C(=O)O | THP-1, PMA-differentiated | cell viability, MTT |  | 21.9 |
| O=C(Nc1ccc([N+](=O)[O-])cc1Cl)c1cc(Cl)ccc1O | Vero E6 cells | cell viability | 72 h | 3.2 |
| COc1ccc(-c2nn3c(Cn4nnc5ccccc54)nnc3s2)cc1OC | HEp-2 | cytotoxicity |  | > 100 |
| CC[C@H](C)[C@H](N)C(=O)N[C@@H](CCCNC(=N)N)C(=O)N[C@@H](CCCNC(=N)N)C(=O)N[C@@H](C)C(=O)N[C@H](C(=O)N[C@@H](CC(N)=O)C(=O)N[C@@H](CCCCN)C(=O)N[C@@H](Cc1ccc(O)cc1)C(=O)N1CCC[C@H]1C(=O)N1CCC[C@H]1C(=O)N[C@H](C(=O)N[C@@H](CC(N)=O)C(=O)N[C@@H](CC(C)C)C(=O)N[C@@H](CCCCN)C(=O)N[C@H](C(=O)N[C@@H](CCCCN)C(=O)N[C@@H](CS)C(=O)N[C@@H](CC(N)=O)C(=O)N[C@@H](CCCNC(=N)N)C(=O)N[C@@H](CC(C)C)C(=O)N[C@@H](CC(N)=O)C(=O)N[C@@H](CO)C(=O)N[C@H](C(=O)N[C@@H](CC(=O)O)C(=O)N1CCC[C@H]1C(=O)N[C@@H](CCCCN)C(=O)N[C@@H](CCC(N)=O)C(=O)N1CCC[C@H]1C(=O)N1CCC[C@H]1C(=O)N[C@@H](CCCNC(=N)N)C(=O)N1CCC[C@H]1C(=O)N[C@@H](Cc1ccccc1)C(=O)N[C@@H](CCCNC(=N)N)C(=O)N[C@@H](CO)C(=O)N[C@@H](Cc1ccccc1)C(=O)N[C@H](C(=O)N1CCC[C@H]1C(=O)NCC(=O)N1CCC[C@H]1C(=O)N[C@@H](CC(C)C)C(=O)N[C@@H](CCCCN)C(=O)N[C@@H](C)C(=O)N[C@H](C(=O)N[C@@H](CC(C)C)C(=O)N[C@@H](CCCCN)C(=O)O)[C@@H](C)O)C(C)C)[C@@H](C)CC)[C@@H](C)CC)[C@@H](C)CC)[C@@H](C)CC | THP-1, PMA-differentiated | cell viability, MTT |  | 25.6 |
| CCOc1ccccc1-c1nn2c(Cn3c(-c4ccccn4)nc4ccccc43)nnc2s1 | HEp-2 | cytotoxicity |  | 1.3 |
| CC[C@H](C)[C@H](NC(=O)[C@H](CCCCN)NC(=O)[C@H](CC(C)C)NC(=O)[C@H](CCSC)NC(=O)[C@H](CO)NC(=O)[C@H](C)NC(=O)CNC(=O)[C@H](CCCCN)NC(=O)[C@H](CCCCN)NC(=O)[C@H](CC(N)=O)NC(=O)CNC(=O)[C@H](CCCCN)NC(=O)[C@H](CC(C)C)NC(=O)[C@H](CCCNC(=N)N)NC(=O)[C@@H](NC(=O)[C@H](CC(C)C)NC(=O)[C@H](Cc1ccc(O)cc1)NC(=O)[C@H](CCCCN)NC(=O)[C@H](C)NC(=O)[C@H](CCCCN)NC(=O)[C@@H]1CCCN1C(=O)[C@H](CCCCN)NC(=O)CNC(=O)[C@H](CCCNC(=N)N)NC(=O)[C@H](CC(C)C)NC(=O)[C@H](CCC(N)=O)NC(=O)[C@@H](N)Cc1ccccc1)C(C)C)C(=O)N[C@@H](CC(C)C)C(=O)N[C@@H](C)C(=O)N[C@H](C(=O)N[C@H](C(=O)N[C@@H](CCCNC(=N)N)C(=O)N1CCC[C@H]1C(=O)N[C@H](C(=O)N[C@@H](CCCCN)C(=O)N[C@@H](CCC(N)=O)C(=O)N[C@@H](CO)C(=O)N[C@@H](Cc1ccccc1)C(=O)N1CCC[C@H]1C(=O)N[C@@H](CO)C(=O)N[C@@H](CC(C)C)C(=O)N1CCC[C@H]1C(=O)O)[C@@H](C)O)[C@@H](C)O)[C@@H](C)O | THP-1, PMA-differentiated | cell viability, MTT |  | 64.6 |
| CC[C@H]1CN2CCc3cc(OC)c(OC)cc3[C@@H]2C[C@@H]1C[C@H]1NCCc2cc(OC)c(OC)cc21 | THP-1 PMA-differentiated macrophages | CellTiter-Glo | 72 h, host cell cytotoxicity | 0.23 |
| CC[C@H](C)[C@H](NC(=O)[C@H](C)NC(=O)[C@H](CCCNC(=N)N)NC(=O)[C@H](CCCNC(=N)N)NC(=O)[C@@H](NC(=O)[C@H](CO)NC(=O)[C@H](CC(N)=O)NC(=O)[C@@H](NC(=O)[C@H](Cc1ccccc1)NC(=O)[C@H](CO)NC(=O)[C@H](CCCCN)NC(=O)[C@@H](NC(=O)[C@H](Cc1ccccc1)NC(=O)[C@H](CCCCN)NC(=O)[C@@H](N)C(C)C)C(C)C)[C@@H](C)CC)[C@@H](C)CC)C(=O)N[C@@H](CC(N)=O)C(=O)N[C@@H](CCCCN)C(=O)N[C@@H](Cc1ccc(O)cc1)C(=O)N1CCC[C@H]1C(=O)N1CCC[C@H]1C(=O)N[C@H](C(=O)N[C@@H](CC(N)=O)C(=O)N[C@@H](CC(C)C)C(=O)N[C@@H](CCCCN)C(=O)N[C@H](C(=O)N[C@@H](CCCCN)C(=O)N[C@@H](CS)C(=O)N[C@@H](CC(N)=O)C(=O)N[C@@H](CCCNC(=N)N)C(=O)N[C@@H](CC(C)C)C(=O)N[C@@H](CC(N)=O)C(=O)N[C@@H](CO)C(=O)N[C@H](C(=O)N[C@@H](CC(=O)O)C(=O)N1CCC[C@H]1C(=O)N[C@@H](CCCCN)C(=O)N[C@@H](CCC(N)=O)C(=O)N1CCC[C@H]1C(=O)N1CCC[C@H]1C(=O)N[C@@H](CCCNC(=N)N)C(=O)N1CCC[C@H]1C(=O)N[C@@H](Cc1ccccc1)C(=O)N[C@@H](CCCNC(=N)N)C(=O)N[C@@H](CO)C(=O)N[C@@H](Cc1ccccc1)C(=O)N[C@H](C(=O)O)C(C)C)[C@@H](C)CC)[C@@H](C)CC)[C@@H](C)CC | THP-1, PMA-differentiated | cell viability, MTT |  | 43 |
| CC(C)(C)c1ccc(-c2nn3c(Cn4cnc5ccccc54)nnc3s2)cc1 | HEp-2 | cytotoxicity |  | 26.8 |
| CCC(CC)COC(=O)[C@H](C)N[P@](=O)(OC[C@H]1O[C@@](C#N)(c2ccc3c(N)ncnn23)[C@H](O)[C@@H]1O)Oc1ccccc1 | CEM |  |  | 9 ± 4.7 |
| COc1ccccc1OCCNCC(O)COc1cccc2[nH]c3ccccc3c12 (stereo not shown) | A549 | MTT | 72 h | 17.8 |
| COc1ccc(-c2nn3c(Cn4c(-c5ccccn5)nc5ccccc54)nnc3s2)cc1OC | HEp-2 | cytotoxicity |  | > 100 |

A few entries again:
| SMILES | cell line | test | conditions | CC50 [µM] |
| --- | --- | --- | --- | --- |
| CC[C@H](C)[C@H](NC(=O)[C@H](CC(C)C)NC(=O)[C@@H](NC(=O)[C@H](CCCCN)NC(=O)[C@H](CCCNC(=N)N)NC(=O)[C@H](CCCCN)NC(=O)[C@H](CC(C)C)NC(=O)[C@H](Cc1ccc(O)cc1)NC(=O)[C@@H](NC(=O)[C@@H](NC(=O)[C@H](Cc1ccccc1)NC(=O)CN)C(C)C)C(C)C)[C@@H](C)O)C(=O)N[C@@H](CCCNC(=N)N)C(=O)N[C@@H](CC(C)C)C(=O)N[C@@H](CC(C)C)C(=O)N[C@@H](Cc1ccccc1)C(=O)N[C@H](C(=O)N[C@@H](CC(N)=O)C(=O)N[C@@H](CCCCN)C(=O)N[C@@H](CCCCN)C(=O)N[C@H](C(=O)N[C@H](C(=O)N[C@H](C(=O)N[C@@H](CCC(=O)O)C(=O)N[C@@H](CCCCN)C(=O)N[C@@H](CC(C)C)C(=O)N[C@@H](CCCNC(=N)N)C(=O)N[C@@H](CS)C(=O)N[C@H](C(=O)N[C@@H](CCCNC(=N)N)C(=O)N1CCC[C@H]1C(=O)N[C@@H](CO)C(=O)N[C@@H](CCCNC(=N)N)C(=O)N1CCC[C@H]1C(=O)N1CCC[C@H]1C(=O)N[C@@H](CCCNC(=N)N)C(=O)NCC(=O)N[C@@H](Cc1ccccc1)C(=O)O)C(C)C)[C@@H](C)CC)[C@@H](C)O)[C@@H](C)O)[C@@H](C)O | THP-1, PMA-differentiated | cell viability, MTT |  | 72.8 |
| Nc1ncnc2c1ccn2[C@H]1[C@H](O)[C@H](O)[C@]2(CO)C[C@H]12 | monkey cell line | visual |  | > 100 |
